{"data": "Published values from different studies", "cell line": "Vero E6", "note": "Lines come from different studies, so protocols differ. ± gives the spread as reported."}
{"SMILES": "Clc1ccc(CN2CCCC3=CC4CC(CN5CCCCC45)C32)c(Cl)c1 (centres unmarked)", "measurement": "CC50", "result": "177 µM"}
{"SMILES": "O=C(CN1CCn2c(nnc2C(F)(F)F)C1)SC1=NC(c2ccc(C(F)(F)F)cc2)C(C(=O)Nc2ccc(S(=O)(=O)O)cc2)=C(C(F)(F)F)N1 (centres unmarked)", "technique": "MTT", "time": "48 h", "measurement": "CC50", "result": "247 µM"}
{"SMILES": "COc1ccc(C(=O)OC2C(OC3C(O)COC(OC4CC5C6CC=C7CC(O)CCC7(C)C6CCC5(C)C4(O)C(C)C(=O)CCC(C)C)C3OC(C)=O)OCC(O)C2O)cc1 (centres unmarked)", "time": "3 days", "measurement": "first cytotoxic concentration", "result": "0.007 µM"}
{"SMILES": "Cc1ccc(NCCN(C)CCNc2ccnc3cc(Cl)ccc23)c2c(=O)c3ccccc3sc12", "technique": "nuclei count", "tested at": "25 µM", "measurement": "cytotoxicity", "result": "not toxic"}
{"SMILES": "Cn1nc(-c2ccc(C(F)(F)F)cc2)nc2c(=O)n(C)c(=O)nc1-2", "tested at": "concentration not given", "measurement": "cytotoxicity", "result": "99.7%"}
{"SMILES": "Cc1ccc(NCCN(C)CCNc2ccnc3cc(Cl)ccc23)c2c(=O)c3ccccc3sc12", "tested at": "30.0 µM", "time": "72 (unit not given)", "measurement": "cytotoxicity", "result": "< 20%"}
{"SMILES": "NS(=O)(=O)c1cccc2c1C(=O)c1cccc(O)c1C2=O", "tested at": "concentration not given", "measurement": "cytotoxicity", "result": "100%"}
{"SMILES": "COC(=O)c1cc2c(=O)n3ccccc3nc2n1Cc1ccccc1", "technique": "MTT", "measurement": "IC50", "result": "> 200 µM"}
{"SMILES": "CC12OOC(C)(OO1)C2CCC(=O)NCCCNc1ccnc2cc(Cl)ccc12 (centres unmarked)", "time": "72 h", "measurement": "CC50", "result": "28 ± 2.9 µM"}
{"SMILES": "C[C@H]1[C@H](OC(=O)CC[C@@H](C)C2CCC3C4C(CC[C@@]32C)[C@@]2(C)CC[C@@H](O)CC2C[C@@H]4O)O[C@@H]2O[C@@]3(C)CCC4[C@H](C)CC[C@@H]1[C@]42OO3 (some centres unmarked)", "effect on": "cytotoxicity", "time": "24 h", "measurement": "IC50", "result": "~100 µM"}
{"SMILES": "C=Cc1c(C)c2cc3nc(cc4[nH]c(cc5nc(cc1[nH]2)C(C)=C5CCC(=O)O)c(CCC(=O)OC)c4C)[C@@]1(C)C3=CC=C(C(=O)OC)[C@H]1C(=O)OC", "effect on": "cytotoxicity", "tested at": "30.0 µM", "time": "72 (unit not given)", "measurement": "viability reduction", "result": "~22%"}
{"SMILES": "CC12OOC(C)(OO1)C2CCC(=O)OCCNc1ccnc2cc(Cl)ccc12 (centres unmarked)", "time": "72 h", "measurement": "CC50", "result": "~37 µM"}
{"SMILES": "CCN(CC)CCOC1CCC2(C)C(=CCC3C4CCC(=O)C4(C)CCC32)C1 (centres unmarked)", "time": "3 days", "measurement": "first cytotoxic concentration", "result": "20 µM"}
{"SMILES": "COC(=O)CC[C@@H](C)C1CCC2C3C(CC[C@@]21C)[C@@]1(C)CC[C@@H](n2cc(CO[C@H]4O[C@@H]5O[C@@]6(C)CCC7[C@H](C)CC[C@@H]([C@H]4C)[C@]75OO6)nn2)CC1C[C@@H]3O (some centres unmarked)", "effect on": "cytotoxicity", "time": "24 h", "measurement": "IC50", "result": "> 100 µM"}
{"note": "Repeated from above:"}
{"SMILES": "Clc1ccc(CN2CCCC3=CC4CC(CN5CCCCC45)C32)c(Cl)c1 (centres unmarked)", "measurement": "CC50", "result": "177 µM"}
{"SMILES": "O=C(CN1CCn2c(nnc2C(F)(F)F)C1)SC1=NC(c2ccc(C(F)(F)F)cc2)C(C(=O)Nc2ccc(S(=O)(=O)O)cc2)=C(C(F)(F)F)N1 (centres unmarked)", "technique": "MTT", "time": "48 h", "measurement": "CC50", "result": "247 µM"}
